Assay results collected from several papers.
Parts stem from different laboratories: compare values within a part only.

Series 1
Target: Phosphate system positive regulatory protein PHO4, full length, GST-tagged (PHO4, Saccharomyces cerevisiae, UniProt P07270, residues 1-312)
Method: competition protein-binding microarray
Molecule type: double-stranded DNA, one strand shown
Sample: in vitro
Concentration: 2 µM
Setting: whole 60-bp probe, lowest competitor level
Added: Cbf1 competitor, 0.05 µM
Reading: higher = stronger binding
Residues (chain): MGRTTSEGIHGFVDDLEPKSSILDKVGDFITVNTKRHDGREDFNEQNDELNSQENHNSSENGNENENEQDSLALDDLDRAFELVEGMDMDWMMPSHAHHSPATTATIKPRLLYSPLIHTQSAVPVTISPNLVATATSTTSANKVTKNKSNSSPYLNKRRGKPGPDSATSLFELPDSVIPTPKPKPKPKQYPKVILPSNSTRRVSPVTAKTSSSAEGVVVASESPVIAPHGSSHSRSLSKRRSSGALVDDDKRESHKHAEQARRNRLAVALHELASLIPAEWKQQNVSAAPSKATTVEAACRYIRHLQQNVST
| Sequence | fluorescence intensity |
| --- | --- |
| CTAACGAAGGTTTGGGTCGTGGGTGACAAGCCAAGTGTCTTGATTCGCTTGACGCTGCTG | 8790 a.u. |
| ACAAATATCGCGAACCGCGTGAAGTGGCTTAGTTTTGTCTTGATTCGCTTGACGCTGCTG | 5760 a.u. |
| CTTCTGTAAATTTTTCACGTGTCCTGACGCGCCCCGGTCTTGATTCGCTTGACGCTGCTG | 12100 a.u. |
| GAGGTTTACTCCAGTTTCGTGGGACTGTGCATTTTCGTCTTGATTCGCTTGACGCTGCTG | 3910 a.u. |
| AGCTCTCCATTATTTTGAAGTTTTAGACCCTATAATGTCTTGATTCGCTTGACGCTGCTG | 2560 a.u. |
| GCCGTTTTGCTCCGGGTCGTGCCGACGTAAATCCATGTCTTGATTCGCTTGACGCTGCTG | 8390 a.u. |
| CGTTCCTGGAACAGACGCGTGGGACATTTAGCGGGGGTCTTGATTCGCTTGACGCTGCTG | 9080 a.u. |
| TTAGCTCTGCTGCATTTGCTGTTCGTTTAGTAAAAAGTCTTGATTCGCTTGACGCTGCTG | 3570 a.u. |

Series 2
Target: Transcriptional repressor CTCF (CTCF, Homo sapiens, UniProt P49711, residues 1-727, full length assumed)
Method: protein-binding microarray
Molecule type: double-stranded DNA, one strand shown
Sample: in vitro
Concentration: not given
Setting: k-mer, scored over probes, only values ≥0.25
Reading: higher = stronger binding
Residues (chain): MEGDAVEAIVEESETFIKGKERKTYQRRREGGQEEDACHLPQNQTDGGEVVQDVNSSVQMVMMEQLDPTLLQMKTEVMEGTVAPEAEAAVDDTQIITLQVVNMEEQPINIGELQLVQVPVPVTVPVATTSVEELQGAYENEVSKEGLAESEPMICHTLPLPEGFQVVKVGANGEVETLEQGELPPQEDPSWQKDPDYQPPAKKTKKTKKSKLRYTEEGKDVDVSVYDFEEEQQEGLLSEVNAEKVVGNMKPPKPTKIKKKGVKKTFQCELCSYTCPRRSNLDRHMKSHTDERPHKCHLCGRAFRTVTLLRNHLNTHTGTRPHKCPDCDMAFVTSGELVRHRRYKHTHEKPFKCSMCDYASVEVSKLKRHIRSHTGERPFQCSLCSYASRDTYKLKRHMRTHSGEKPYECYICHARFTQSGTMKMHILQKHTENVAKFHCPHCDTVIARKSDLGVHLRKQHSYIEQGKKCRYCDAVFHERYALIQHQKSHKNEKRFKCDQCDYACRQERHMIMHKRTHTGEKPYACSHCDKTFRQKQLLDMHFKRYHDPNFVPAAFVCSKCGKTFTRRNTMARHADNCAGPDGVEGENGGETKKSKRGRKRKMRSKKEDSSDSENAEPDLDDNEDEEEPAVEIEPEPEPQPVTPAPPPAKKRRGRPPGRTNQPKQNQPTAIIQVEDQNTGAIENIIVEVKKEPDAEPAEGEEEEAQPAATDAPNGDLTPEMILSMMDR
| Sequence | E-score |
| --- | --- |
| CGCAAGTA | 0.292 |
| AGCAAATA | 0.271 |
| ATAATACA | 0.344 |
| ATACAATG | 0.302 |
| ACATACTC | 0.251 |
| AATTGCGC | 0.373 |
| GTAATACA | 0.281 |
| CCTTGTTA | 0.292 |

Series 3
Target: Replicase polyprotein 1ab, polymerase (rep, Severe acute respiratory syndrome coronavirus 2, UniProt P0DTD1)
Effect on: enzyme activity
Mode: inhibitor
Concentration: 20 µM
| Structure (SMILES) | inhibition [%] |
| --- | --- |
| C[C@]12C=CC(=O)C=C1CC[C@@H]1[C@@H]2[C@@H](O)C[C@@]2(C)[C@H]1CC[C@]2(O)C(=O)COC(=O)CCC(=O)O | -6.15 |
| CCn1cnc(C(=O)NC)c1C(=O)NC | -6.74 |
| CCCCN(CCCC)CCCOC(=O)c1ccc(N)cc1 | 5.12 |
| CC1c2ccccc2CN1CC1=NCCN1 (stereo not shown) | 10.4 |
| C=C[C@@H]1C[C@]1(NC(=O)[C@@H]1C[C@@H](Oc2ncc(OC)c3ccc(Cl)cc23)CN1C(=O)[C@@H](NC(=O)OC(C)(C)C)C(C)(C)C)C(=O)NS(=O)(=O)C1CC1 | -3.8 |
| CCn1c(=O)n(C2=C(CO)CN(CC3CCCCCCC3)CC2)c2ccccc21 | 0.14 |
| CSc1ccc(C(=O)N[C@@H]2CCCC[C@@H]2NC(=O)CNC(=O)c2cc(C(F)(F)F)ccc2NC(=O)NC(C)C)cc1 | -2.68 |
| NS(=O)(=O)c1ccc2c(c1)C1C=CCC1C(c1ccc(Br)cc1)N2 (stereo not shown) | 2.14 |
| CCOc1ccc(Cc2cc([C@]34OC[C@](CO)(O3)[C@@H](O)[C@H](O)[C@H]4O)ccc2Cl)cc1 | 2.76 |
| COc1cc(N)c(Cl)cc1C(=O)NC1CN2CCC1CC2 (stereo not shown) | 0.26 |
| Cc1ncc(Cl)cc1NCc1ccc(C(=O)N[C@@H](CC2CCCC2)C(=O)NC2CC2)s1 | -0.8 |
| NC(N)=NCCC[C@@H](N)C(=O)N[C@@H](CCCN=C(N)N)C(=O)N1CCC[C@H]1C(=O)N1C[C@H](O)C[C@H]1C(=O)NCC(=O)N[C@@H](Cc1cccs1)C(=O)N[C@@H](CO)C(=O)N1Cc2ccccc2C[C@@H]1C(=O)N1[C@H](C(=O)N[C@@H](CCCN=C(N)N)C(=O)O)C[C@@H]2CCCC[C@@H]21 | 5.09 |
| CN(C)C/C=C/C(=O)Nc1cc2c(Nc3ccc(F)c(Cl)c3)ncnc2cc1O[C@H]1CCOC1 | 4.78 |
| CC[C@H]1CN2CCc3cc(OC)c(OC)cc3[C@@H]2C[C@@H]1C[C@H]1NCCc2cc(OC)c(OC)cc21 | -2.43 |
| N#Cc1ccc(-c2ccc(S(=O)(=O)Nc3cccc(N)n3)cc2)cc1 | -3.56 |
| COc1cc(OC)c(C=C2C(=O)Nc3ccccc32)c(OC)c1 | 6.67 |
| C=C1CC[C@H](O)C/C1=C/C=C1\CCC[C@]2(C)[C@@H]([C@H](C)CCCC(C)(C)O)CC[C@@H]12 | -3.17 |
| O=C(O)c1cnn(-c2nc3cc(OC(F)(F)F)c(Cl)cc3[nH]2)c1 | -3.49 |
| Nc1ccc(C(=O)NCC(=O)O)cc1 | -2.01 |
| C/C(=N\NC(=O)C(NC(=O)c1ccccc1)c1n[nH]c(=O)c2ccccc12)c1cccc(Br)c1 (stereo not shown) | 0.38 |
| Cc1[nH]cnc1-c1ccc(Cl)cc1 | 6.91 |
| C=CCn1c(=O)c2cnc(Nc3ccc(N4CCN(C)CC4)cc3)nc2n1-c1cccc(C(C)(C)O)n1 | 2.9 |
| CC[C@@H](NC(C)C)[C@@H](O)c1ccc(O)c2[nH]c(=O)ccc12 | -3.32 |
| C[C@H]1[C@H](C)CC[C@]2(C(=O)O)CC[C@]3(C)C(=CC[C@@H]4[C@@]5(C)CC[C@H](O)C(C)(C)[C@@H]5CC[C@]43C)[C@H]12 | 1.63 |
| C[C@@H]1C(=O)O[C@H]2[C@H](O)[C@@]34[C@H]5C[C@@H](C(C)(C)C)[C@]36[C@@H](OC(=O)[C@@H]6O)O[C@@]4(C(=O)O5)[C@@]12O | 4.14 |

Series 4
Target: RNA binding protein fox-1 homolog 2, RRM domain, GST-SBP tag (RBFOX2, Homo sapiens, UniProt O43251-10, residues 100-194)
Method: RNA Bind-n-Seq
Molecule type: RNA
Sample: in vitro
Concentration: 365 nM
Setting: natural RNA segment, single round, ends assumed
Reference: no-protein control
Reading: higher = stronger binding
Construct (chain): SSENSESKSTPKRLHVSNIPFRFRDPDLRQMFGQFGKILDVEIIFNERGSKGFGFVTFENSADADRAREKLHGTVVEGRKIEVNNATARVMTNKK
| Sequence | RBNS enrichment (R) |
| --- | --- |
| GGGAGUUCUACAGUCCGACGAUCUUACACCACCGGCCCCCUCCCCCCAGACUCUUUUUUUGAGUGACAGCUUUCUGGGAUGUCACAGUCCAACCAGAAACACCCCUCUGUCUAGGACUGCAGUGUGGAGUUCAUGGAAUUCUCGGGUGCCAA | 0.449 |
| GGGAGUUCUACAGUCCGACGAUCUUAGCCUGCUUCUCACAGGACACUUGUGACAGCAGAGCUGGGGGUGGUUUUCCAGCCUCGACCCACUGCGCUCACCUGGCACUGCCCCACUUUCUUCACCCUGGGUCUGUUGGAAUUCUCGGGUGCCAA | 0.282 |
| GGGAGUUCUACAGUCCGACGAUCCUCUGCAAGAGCCAUGCCUUCUCUCAUGUGUGAGCCCCUUCUGCCCACAGCUGCCGCGGUGGCCCCUAGCCUGAGGGGCCUGGAGUCGUGGCCCUGCAUUUCUGGGUAGGUGGAAUUCUCGGGUGCCAA | 0.95 |
| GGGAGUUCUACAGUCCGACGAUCCAGUGUGUUAACUGCUUAUCAGCUAUUCAGACAUCUCCAUGGUUUCUCCAUGAAACUCUGUGGUUUCAUCAUUCCUUCUUAGUUGACCUGCACAGCUUGGUUAGACCUAGUGGAAUUCUCGGGUGCCAA | 0.301 |
| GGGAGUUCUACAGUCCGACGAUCGAAGGUGGACCUUCUACAAUCUGUCAUGAACUGUGAUAUUGUAAGGUCUAUAUUCUGUAUGUGGAUAACAGACCCAAUCAGGAAACGAGCCUUAUGUGUGUCGUUAACAUUGGAAUUCUCGGGUGCCAA | 0.239 |
| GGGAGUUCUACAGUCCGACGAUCUUUUUUUCUCCCUCAAGUAUAAAUAGUGGUAACUAUAUGUUUUGUAUCUUCUAGCACCAACUGCUGUAAAGCAAUGCUGCAAAUAAUGCUUGAAUACAAGUGGCUAAGCCUGGAAUUCUCGGGUGCCAA | 0.582 |
| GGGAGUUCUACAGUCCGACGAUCAUUUGGAGUAUCUGGUACUAGCUAAGAAAUAAUUCUAUAAUUGAGUUUUGUACUCACCAUAUAUGGAUCAUUCCUCAUGUAUAAUGUGCCCCAAAUGCAGCUUCAUUUUCUGGAAUUCUCGGGUGCCAA | 0.25 |
| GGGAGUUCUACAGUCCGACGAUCUCUCCAGUUAGCUAACUGGAUUCUUAAGGAUGAUUCUAGCAAAUUAUAAGAAUAAAUAGUAAAAAGAGGCAGGGACAUAUUUGUUAACAAUAUAUUGAAAUGGGAGCUUUUGGAAUUCUCGGGUGCCAA | 0.948 |

Series 5
Target: Replicase polyprotein 1ab, main protease (rep, Severe acute respiratory syndrome coronavirus 2, UniProt P0DTD1)
Effect on: enzyme activity
Mode: inhibitor
Concentration: 20 µM
Setting: hit confirmation
| Structure (SMILES) | inhibition [%] |
| --- | --- |
| CN1CC[C@@]2(C)c3cc(O)ccc3N(C)[C@@H]12 | 75.5 |
| Cc1ccc(-n2sc3ccccc3c2=O)cc1 | 111 |
| CCn1c(-c2ccc(Cl)cc2)n[nH]c1=O | 68.9 |

Series 6
Cell line: HEK-293T/ACE2
Concentration: concentration not given
Time: 16 (unit not given)
Reference: vehicle
| Compound | viability [%] |
| --- | --- |
| N[C@@H]1CON=C1O | 100 |
| NS(=O)(=O)Cc1noc2ccccc12 | 94.4 |
| O=NN(CCCl)C(=O)NC1CCCCC1 | 100 |

Repeated from above (series 3):
| Structure (SMILES) | inhibition [%] |
| --- | --- |
| CCn1c(=O)n(C2=C(CO)CN(CC3CCCCCCC3)CC2)c2ccccc21 | 0.14 |
| CSc1ccc(C(=O)N[C@@H]2CCCC[C@@H]2NC(=O)CNC(=O)c2cc(C(F)(F)F)ccc2NC(=O)NC(C)C)cc1 | -2.68 |
| NS(=O)(=O)c1ccc2c(c1)C1C=CCC1C(c1ccc(Br)cc1)N2 (stereo not shown) | 2.14 |
| CCOc1ccc(Cc2cc([C@]34OC[C@](CO)(O3)[C@@H](O)[C@H](O)[C@H]4O)ccc2Cl)cc1 | 2.76 |
| COc1cc(N)c(Cl)cc1C(=O)NC1CN2CCC1CC2 (stereo not shown) | 0.26 |
| Cc1ncc(Cl)cc1NCc1ccc(C(=O)N[C@@H](CC2CCCC2)C(=O)NC2CC2)s1 | -0.8 |
